Measurements collected from several papers.
Compare with care: the assays were run in different laboratories. Numbers after ± are the reported error.

SMILES | sample | pH | notes | molar extinction coefficient
COc1cccc(Cc2cc(CCC(=O)NC3=C(C)C4=C(C)c5c(C)cc(C)n5[B-](F)(F)[N+]4=C3C)nn(CC(=O)Nc3ccc(Br)cc3)c2=O)c1 | methanol | – | – | 74400 M⁻¹ cm⁻¹
CCCCN1C(=O)c2cccc3c(NCCCCCCN4CCOCC4)ccc(c23)C1=O | acetonitrile | – | – | 13700 M⁻¹ cm⁻¹
COC(=O)c1ccccc1-c1c2ccc(=[N+](C)C)cc-2oc2c1ccc1cccc(O)c12 | 12.5 mM aqueous NaOH | pH 12.1 | 10% DMSO | 17300 M⁻¹ cm⁻¹
CCCCN1C(=O)c2cccc3c(NCCCCCCCCCCN4CCOCC4)ccc(c23)C1=O | toluene | – | – | 12700 M⁻¹ cm⁻¹
CC1=N/C(=C\c2cc(F)c(O)c(F)c2)C(=O)N1CCOCCNC(=O)OC(C)(C)C | – | pH 7.5 | – | 33800 ± 500 M⁻¹ cm⁻¹
COC(=O)c1ccccc1-c1c2ccc(=O)cc-2oc2c1ccc1cccc(O)c12 | 12.5 mM aqueous NaOH | pH 12.1 | 10% DMSO | 8610 M⁻¹ cm⁻¹
CCCCN1C(=O)c2cccc3c(NCCCCN4CCOCC4)ccc(c23)C1=O | dichloromethane | – | – | 7900 M⁻¹ cm⁻¹
CC1=N/C(=C\c2cc(F)c(O)c(F)c2)C(=O)N1CCOCCOCCNC(=O)OC(C)(C)C | – | pH 7.5 | – | 40000 ± 1000 M⁻¹ cm⁻¹
COc1cccc(Cc2cc(CCC(=O)NCCNc3cccc4c(S(=O)(=O)O)cccc34)nn(CC(=O)Nc3ccc(Br)cc3)c2=O)c1 | methanol | – | – | 4600 M⁻¹ cm⁻¹
[2H]C([2H])([2H])C1(C([2H])([2H])[2H])NC(=O)N(c2ccc(F)c(C(C)(F)F)c2)C1=O | – | – | wavelength 270-900 nm | < 1000 M⁻¹ cm⁻¹

Repeated from above:
SMILES | sample | pH | notes | molar extinction coefficient
CC1=N/C(=C\c2cc(F)c(O)c(F)c2)C(=O)N1CCOCCNC(=O)OC(C)(C)C | – | pH 7.5 | – | 33800 ± 500 M⁻¹ cm⁻¹
